Results gathered from unrelated publications.
A part holds a random share of what one study measured. Substitutions count along the parent as printed.

Set 1
Target: Sal-like protein 4, full length isoform A (SALL4, Homo sapiens, UniProt Q9UJQ4, residues 1-1053)
Chain of UniProt Q9UJQ4 (whole entry, looked up): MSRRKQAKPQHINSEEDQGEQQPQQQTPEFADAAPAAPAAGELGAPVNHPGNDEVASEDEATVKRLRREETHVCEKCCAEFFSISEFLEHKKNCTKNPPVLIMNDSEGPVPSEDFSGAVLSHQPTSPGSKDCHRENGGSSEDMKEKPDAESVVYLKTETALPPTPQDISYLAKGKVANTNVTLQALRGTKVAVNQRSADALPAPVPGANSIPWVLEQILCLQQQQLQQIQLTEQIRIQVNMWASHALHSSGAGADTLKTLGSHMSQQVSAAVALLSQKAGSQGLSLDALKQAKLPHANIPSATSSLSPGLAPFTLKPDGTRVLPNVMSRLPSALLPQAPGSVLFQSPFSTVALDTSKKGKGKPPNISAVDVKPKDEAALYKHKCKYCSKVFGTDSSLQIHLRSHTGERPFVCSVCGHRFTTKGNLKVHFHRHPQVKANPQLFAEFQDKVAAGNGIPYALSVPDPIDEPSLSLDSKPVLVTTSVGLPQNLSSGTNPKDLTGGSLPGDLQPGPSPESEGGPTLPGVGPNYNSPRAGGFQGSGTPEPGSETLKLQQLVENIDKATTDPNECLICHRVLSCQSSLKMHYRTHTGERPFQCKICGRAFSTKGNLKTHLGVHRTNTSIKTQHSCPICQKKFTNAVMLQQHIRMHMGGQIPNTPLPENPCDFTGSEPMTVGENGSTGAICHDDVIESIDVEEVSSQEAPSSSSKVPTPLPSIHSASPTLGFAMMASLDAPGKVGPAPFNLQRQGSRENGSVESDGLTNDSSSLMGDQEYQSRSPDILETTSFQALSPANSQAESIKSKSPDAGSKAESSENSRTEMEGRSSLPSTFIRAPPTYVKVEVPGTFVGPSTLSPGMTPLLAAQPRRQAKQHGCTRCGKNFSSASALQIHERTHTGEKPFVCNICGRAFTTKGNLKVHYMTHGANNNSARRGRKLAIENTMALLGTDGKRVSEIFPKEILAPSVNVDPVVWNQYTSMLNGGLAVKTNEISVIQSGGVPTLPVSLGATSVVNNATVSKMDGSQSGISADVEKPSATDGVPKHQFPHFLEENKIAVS
Technique: universal PBM
Form: double-stranded DNA, one strand shown
Medium: in vitro
Concentration: 600 nM
Notes: 8-mer, flanks averaged, mean of replicates
Direction: higher = stronger binding
Quantity: E-score
Sequence = TCCGTTCA; value = -0.0871
Sequence = CGGTAACC; value = -0.286
Sequence = AAGCCCCA; value = -0.309
Sequence = AGCCCCTG; value = -0.376
Sequence = CTGCGAGA; value = -0.284
Sequence = ACGGACGC; value = -0.262
Sequence = CAGGGATC; value = -0.313
Sequence = GGTAAAAC; value = 0.0901
Sequence = AACGGGTG; value = -0.149
Sequence = CGCTCGGC; value = -0.399
Sequence = ACCAAACT; value = -0.00206
Sequence = CCTCTGAG; value = -0.163
Sequence = AATGTTGC; value = 0.12
Sequence = AACTGTCC; value = -0.173
Sequence = ATGGCACC; value = -0.17
Sequence = TCGAGTCA; value = -0.0839
Sequence = ACACAATG; value = 0.232
Sequence = AGGGAAGG; value = -0.0713
Sequence = AAAGCCGA; value = -0.23
Sequence = CGGGCTCC; value = -0.357
Sequence = CTTCGGTA; value = -0.0846
Sequence = GCCCCCTA; value = -0.17
Sequence = CTCGACCA; value = -0.176
Sequence = AACGCAGC; value = -0.161
Sequence = CAGGTGTA; value = -0.046

Set 2
Target: ABI1, truncated, D143A, DHFR fusion (Arabidopsis thaliana)
Technique: DHFR PCA, deep sequencing
Medium: yeast
Notes: methotrexate growth selection, single substitutions
Together with: (+)-ABA 4.8 µM
Relative to: wild-type fitted maximum
Direction: higher = stronger binding
Quantity: relative binding score
Starting sequence: PYL1, truncated, DHFR fusion (Arabidopsis thaliana); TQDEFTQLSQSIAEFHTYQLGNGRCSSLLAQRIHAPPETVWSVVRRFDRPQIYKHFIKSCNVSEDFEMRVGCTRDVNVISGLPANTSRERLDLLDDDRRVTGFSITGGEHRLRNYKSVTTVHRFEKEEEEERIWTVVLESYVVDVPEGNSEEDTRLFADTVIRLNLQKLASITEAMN; partner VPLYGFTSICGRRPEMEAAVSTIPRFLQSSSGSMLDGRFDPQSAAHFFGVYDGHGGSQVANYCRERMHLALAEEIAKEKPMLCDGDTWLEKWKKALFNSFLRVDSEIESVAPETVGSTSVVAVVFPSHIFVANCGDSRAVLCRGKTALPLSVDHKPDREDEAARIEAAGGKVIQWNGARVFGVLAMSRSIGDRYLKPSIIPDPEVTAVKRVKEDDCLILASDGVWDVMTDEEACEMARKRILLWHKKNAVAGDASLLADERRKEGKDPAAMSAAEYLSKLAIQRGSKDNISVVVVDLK
Change = D97F; value = 45.8%
Change = E125S; value = 78.9%
Change = R69H; value = 64.5%
Change = E64Y; value = 47.3%
Change = L112Q; value = 1.66%
Change = T6I; value = 66.2%
Change = V161I; value = 110%
Change = V100N; value = -13%
Change = D159Y; value = 1.71%
Change = F66R; value = 45%
Change = R111M; value = 25.4%
Change = A158H; value = 5.26%
Change = D92C; value = -7.71%
Change = E64S; value = 73.5%
Change = E147M; value = 57.9%
Change = D92P; value = -10.9%
Change = R99I; value = 7.04%

Set 3
Target: Interferon regulatory factor 5, full length, phosphomimetic (IRF5, Homo sapiens, UniProt Q13568-2, residues 1-514, S451D/S453D/S456D/S462D)
Technique: protein-binding microarray
Form: double-stranded DNA, one strand shown
Medium: in vitro
Concentration: 940 nM top
Notes: 60-bp whole probe
Together with: salmon DNA 0.4 mg/ml
Relative to: random background probes
Direction: higher = stronger binding
Quantity: fitted relative affinity
Shared flanks, not repeated: GCCTAGCAC … GTCTTGATTCGCTTGACGCTGCTG
Sequence = TTGAACTTCGGCCTCTAGGTGTGCTAG; value = -0.304 z-score
Sequence = TCATCCATGGGTATGGCACTGTGCTAG; value = -0.242 z-score
Sequence = TCACCTCTGCTGCTGGCACTGTGCTAG; value = -0.533 z-score
Sequence = GACGATTTCGGGACTGGGGACGTGCTA; value = 0.0999 z-score
Sequence = TTAGGTTTCGGTTCCAGTTAGTGCTAG; value = 15 z-score
Sequence = CCAATTCTTTTTATGCTTTCGTGCTAG; value = 1.68 z-score
Sequence = TTAGAACTGAGTCTCGATCAGTGCTAG; value = 2.17 z-score
Sequence = GACGGTCTCCTTCTTCTGACGTGCTAG; value = 0.717 z-score
Sequence = TTGGGTTTCCTTCTCCTTTAGTGCTAG; value = 1.54 z-score
Sequence = TTAGGACTGCTACTGCTATAGTGCTAG; value = -0.391 z-score
Sequence = GTTTGTGTGTGTATGTGGTCGTGCTAG; value = 0.274 z-score
Sequence = GACGGGTTCGGTCTCGGGACGTGCTAG; value = 0.716 z-score
Sequence = TCACATTTGGTTAGCGTACTGTGCTAG; value = 0.219 z-score
Sequence = TTCGAATTCAGAATGGGAGAGTGCTAG; value = -0.377 z-score
Sequence = TTAGATATCAGTATCGATCAGTGCTAG; value = 4.38 z-score
Sequence = ACATTTTTTTCATTATTGTTGTGCTAG; value = 1.57 z-score
Sequence = ATAGGACTGGGTCTCGGTTAGTGCTAG; value = 1.12 z-score
Sequence = TGGTCTTTCTGTTTTCTCCAGTGCTAG; value = 3.55 z-score
Sequence = CAGTTTCTCTTTCCTTCTTGGTGCTAG; value = 8.72 z-score

Set 4
Target: Histone acetyltransferase KAT6A, both winged helices, GST fusion (KAT6A, Homo sapiens, UniProt Q92794, residues 1-181)
Technique: protein binding microarray
Form: double-stranded DNA, one strand shown
Medium: in vitro
Concentration: not given
Notes: 8-mer, flanks averaged, mean of 2 arrays, mostly near background
Relative to: not given
Direction: higher = stronger binding
Quantity: E-score
Construct (chain): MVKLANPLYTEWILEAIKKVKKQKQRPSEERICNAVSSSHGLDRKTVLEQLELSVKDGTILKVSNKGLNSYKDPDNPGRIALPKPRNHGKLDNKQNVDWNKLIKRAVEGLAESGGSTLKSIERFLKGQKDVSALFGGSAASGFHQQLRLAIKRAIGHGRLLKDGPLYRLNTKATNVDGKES
Sequence = AAGATCAA; value = -0.0637
Sequence = CGGCGGGA; value = 0.331
Sequence = ACCCGGAC; value = 0.132
Sequence = GATTTTCA; value = -0.111
Sequence = AAGACTGC; value = -0.0451
Sequence = CACTAAGA; value = -0.105
Sequence = CGAAAGAC; value = 0.00739
Sequence = ATTCTCAA; value = -0.14
Sequence = TAATGGAA; value = -0.0272
Sequence = ATCTACGG; value = 0.225
Sequence = AGCCCAAG; value = -0.097
Sequence = TATGTGGA; value = 0.0163
Sequence = ACAGGACC; value = -0.0548
Sequence = CTGGTTCA; value = -0.0679
Sequence = CGCAAGAC; value = 0.0262
Sequence = ATTGACCG; value = 0.25
Sequence = CATCCTTC; value = -0.0921
Sequence = ACCGATCA; value = 0.134
Sequence = GATGCCCA; value = -0.0695
Sequence = GAAACGCC; value = 0.123
Sequence = TATCGATA; value = -0.0138
Sequence = AGGAGGAC; value = -0.235
Sequence = AAAGACTG; value = -0.184
Sequence = AACTACTT; value = -0.12
Sequence = GCCGGAGA; value = 0.0954

Set 5
Target: CCNB2, cyclin fold, Cln2 fusion (human)
Technique: yeast growth competition, sequencing
Medium: yeast
Notes: strong parent motif
Relative to: not given
Direction: higher = stronger binding
Quantity: normalised enrichment score
Starting sequence: BRCA2 docking peptide (human); PSIKRNLLNEFDR; partner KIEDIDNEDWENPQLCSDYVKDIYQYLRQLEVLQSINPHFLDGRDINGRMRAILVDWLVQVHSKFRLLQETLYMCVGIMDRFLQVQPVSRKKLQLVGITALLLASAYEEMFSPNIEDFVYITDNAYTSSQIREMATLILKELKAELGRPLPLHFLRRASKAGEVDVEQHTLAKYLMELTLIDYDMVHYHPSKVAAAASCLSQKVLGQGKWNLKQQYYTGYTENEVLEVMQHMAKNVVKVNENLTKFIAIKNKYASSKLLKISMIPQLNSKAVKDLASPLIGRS
Change = R5V; value = 2.18
Change = N6A; value = 1.41
Change = L7M; value = 0.388
Change = P1N; value = 3.62
Change = F11A; value = 0.776
Change = N6S; value = 1.8
Change = N6V; value = 0.233
Change = N6T; value = 1.09
Change = P1S; value = 3.64
Change = I3Q; value = -0.199
Change = D12G; value = 2.67
Change = N9M; value = 3.55
Change = K4T; value = 1.54
Change = R13H; value = 3.18
Change = R5L; value = 0.841
Change = S2R; value = 2.49
Change = F11Q; value = 0.16
Change = R13Y; value = 3.9
Change = K4E; value = 1.29
Change = E10V; value = 0.436
Change = D12M; value = 3.6
Change = R5K F11L; value = 0.736
Change = N6F; value = 0.935
Change = I3R; value = 0.326
Change = S2M; value = 3.25

Set 6
Target: CRIPT, C-terminal peptide
Technique: DHFR complementation, deep sequencing
Medium: yeast
Notes: single substitutions, model-inferred values
Relative to: wild type
Direction: higher = weaker binding
Quantity: binding free energy change
Starting sequence: ERBIN, PDZ domain 1 (human); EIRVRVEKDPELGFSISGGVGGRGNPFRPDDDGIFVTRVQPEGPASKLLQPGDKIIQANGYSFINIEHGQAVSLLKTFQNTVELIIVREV; partner TKNYKQTSV
Change = T77P; value = 0.962 kcal/mol
Change = F27M; value = 1.1 kcal/mol
Change = T77H; value = 0.0413 kcal/mol
Change = R38A; value = 0.0575 kcal/mol
Change = V39D; value = 1.03 kcal/mol
Change = I86P; value = 1.26 kcal/mol
Change = G24N; value = 1.39 kcal/mol
Change = E89S; value = 0.0793 kcal/mol
Change = V90L; value = -0.0166 kcal/mol
Change = S15N; value = 0.967 kcal/mol
Change = I56T; value = 0.106 kcal/mol
Change = G18V; value = 0.716 kcal/mol
Change = F14Y; value = 0.76 kcal/mol
Change = P26S; value = 0.859 kcal/mol
Change = S15E; value = 1.26 kcal/mol
Change = P10T; value = -0.687 kcal/mol
Change = K47L; value = 0.112 kcal/mol
Change = F14L; value = -0.502 kcal/mol
Change = T81Q; value = -0.0272 kcal/mol

Single results of other studies
Substance = PhoQ, residues 284 288 289 292 302 303 ASTSDA; target = PhoP, residues 12 14 15 18 19 IQFRS (Escherichia coli, UniProt P23836); test = Sort-seq, refers to: YFP reporter; test system = E. coli; conditions = PhoQ-PhoP variant library, together with: 10 µM Mg2+; how to read = relative to: high Mg2+ state, higher = stronger signaling; quantity = fold induction; value = 19.8

For quick reference, copied from above (set 2):
Change = R111M; value = 25.4%
Change = A158H; value = 5.26%
Change = R69H; value = 64.5%
Change = V100N; value = -13%
Change = E125S; value = 78.9%
Change = F66R; value = 45%
Change = L112Q; value = 1.66%
Change = E64S; value = 73.5%
Change = T6I; value = 66.2%
Change = R99I; value = 7.04%
Change = V161I; value = 110%
Change = D92C; value = -7.71%
Change = D97F; value = 45.8%
